Results from different studies.
A part holds a random share of what one study measured.

Set 1
Target: Histone acetyltransferase KAT6A, both winged helices, GST fusion (KAT6A, Homo sapiens, UniProt Q92794, residues 1-181)
Technique: protein binding microarray
Form: double-stranded DNA, one strand shown
Sample: in vitro
Tested at: not given
Notes: 8-mer, flanks averaged, mean of 2 arrays, mostly near background
Baseline: not given
Direction: higher = stronger binding
Residues (chain): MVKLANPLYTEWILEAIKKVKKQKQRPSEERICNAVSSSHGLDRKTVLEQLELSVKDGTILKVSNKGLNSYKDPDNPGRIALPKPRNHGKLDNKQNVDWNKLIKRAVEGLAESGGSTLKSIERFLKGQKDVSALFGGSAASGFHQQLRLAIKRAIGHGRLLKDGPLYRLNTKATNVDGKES
Sequence	E-score
TTGTACAA	0.00575
CCTAAACG	0.091
AAGTCACT	-0.0282
CAAGGAAG	-0.128

Set 2
Target: RING finger protein unkempt homolog, zinc fingers 1-6, GST-SBP tag (UNK, Homo sapiens, UniProt Q9C0B0, residues 30-357)
UniProt Q9C0B0, sequence (30-357, looked up): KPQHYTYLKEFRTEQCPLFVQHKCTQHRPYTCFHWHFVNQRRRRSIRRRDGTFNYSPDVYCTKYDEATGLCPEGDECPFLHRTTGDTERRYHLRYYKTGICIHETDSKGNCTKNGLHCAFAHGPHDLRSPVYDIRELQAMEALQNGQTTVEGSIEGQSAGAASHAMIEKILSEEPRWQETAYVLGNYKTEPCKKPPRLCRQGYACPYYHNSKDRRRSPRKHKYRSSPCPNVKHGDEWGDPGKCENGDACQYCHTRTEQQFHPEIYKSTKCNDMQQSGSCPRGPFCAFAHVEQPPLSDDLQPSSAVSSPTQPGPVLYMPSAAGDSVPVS
Technique: RNA Bind-n-Seq
Form: RNA
Sample: in vitro
Tested at: not given
Notes: RNA with constant flanks, ends assumed
Baseline: input RNA pool
Direction: higher = stronger binding
Sequence	bound/input enrichment
GGGAGUUCUACAGUCCGACGAUCCAUAAAAACCAAACACUUCUCUAUAAUCUUUUUGACAUUUCUCAGUCUGCACAGACCCCAACCGCAGUUAUUGGUCUUACAUGUAGAUUGGAUAUUUUGGAACUCUUAGAAAAAAGAGUGCAACAGAGGAUUGAGCAUCA	0.66 ratio
GGGAGUUCUACAGUCCGACGAUCUUGCCGGCUGAAGAAGGAAAAACCUUGCUGGAACUUGUGAUUGAGCAGUUUGAAGACUUACCCGUCCGAAUUUUACUGCUGGCAGCAUGUAUAUCUUUCGUUUUGGCUUGGUUCGAGGAACAACAGAGGAUUGAGCAUCA	0.204 ratio
GGGAGUUCUACAGUCCGACGAUCCUCAGGUUAGAACAAAAAUGUCAUAAAGGGCACUAAAAGUAACAUUUGGGUUUCACUCCAUAUCCCGAAGAAUUUAGCUCACAAAACAAUUUUUGUGUGUUUUGAGUAACUGAUGCAUAACAACAGAGGAUUGAGCAUCA	0.48 ratio
GGGAGUUCUACAGUCCGACGAUCGAUGUAGUAGUCAACAUUUUUAUUAAUAGUUUUGGAUCCAUUCAAGAGACAACAAUGGACUACCGAGUUAACAUUUUCUUGAGACAGAAAUGGAAUGACCCCAGACUCAAGCUACCUAGUCAACAGAGGAUUGAGCAUCA	1.87 ratio

Set 3
Target: Hepatocyte nuclear factor 3-beta, forkhead domain (FOXA2, Homo sapiens, UniProt Q9Y261, residues 142-269)
Technique: protein-binding microarray
Form: double-stranded DNA, one strand shown
Sample: in vitro
Tested at: not given
Notes: k-mer, scored over probes, only values ≥0.25
Direction: higher = stronger binding
Construct (chain): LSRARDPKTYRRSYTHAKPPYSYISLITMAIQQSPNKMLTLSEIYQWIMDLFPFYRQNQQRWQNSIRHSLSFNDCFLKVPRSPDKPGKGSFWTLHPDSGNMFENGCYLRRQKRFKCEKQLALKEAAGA
Sequence	E-score
ACACAAAT	0.327
TTACATAA	0.318
CAATATAA	0.274
ACACACAA	0.407
ATTTAAAC	0.267

Single results of other studies
Molecule	target	assay	test system	conditions	scale	endpoint	result
PhoQ, residues 284 288 289 292 302 303 SQSLSM	PhoP, residues 12 14 15 18 19 NQAHL (Escherichia coli, UniProt P23836)	Sort-seq, refers to: YFP reporter	E. coli	PhoQ-PhoP variant library, together with: 10 µM Mg2+	baseline: high Mg2+ state, higher = stronger signaling	fold induction	0.735

For quick reference, copied from above (set 1):
Sequence	E-score
CAAGGAAG	-0.128
